Experimental data from different studies.
± marks the error that the study gave. In brackets after ≈: the same amount, converted by molar mass.

`CCCCCCCCCC(=O)N[C@@H](Cc1c[nH]c2ccccc12)C(=O)N[C@H](CC(N)=O)C(=O)N[C@@H](CC(=O)O)C(=O)N[C@@H]1C(=O)NCC(=O)N[C@@H](CCCN)C(=O)N[C@@H](CC(=O)O)C(=O)N[C@H](C)C(=O)N[C@@H](CC(=O)O)C(=O)NCC(=O)N[C@H](CO)C(=O)N[C@@H]([C@H](C)CC(=O)O)C(=O)N[C@@H](CC(=O)c2ccccc2N)C(=O)O[C@@H]1C` gave a total clearance of 1 mL/min/kg (male Wistar rat, plasma; subcutaneous, 50 mg/kg).
The tissue uptake of `CN[C@@](C)(C[18F])C(=O)O` is reported as 10 ± 1.3 %ID/g (SCID mouse MDA-MB-468 xenograft, spleen; 30 min, post injection).
`CC(C)C[C@@H]1NC(=O)[C@@H]2CSSC[C@@H](C(=O)NCC(N)=O)NC(=O)[C@H](Cc3ccccc3)NC(=O)CNC(=O)[C@H](CC(N)=O)NC(=O)[C@@H]3CCCN3C(=O)CNC(=O)[C@@H]3CSSC[C@H](NC(=O)[C@H](CO)NC(=O)[C@H]([C@@H](C)O)NC(=O)[C@@H]4CCCN4C(=O)[C@H](C)NC(=O)[C@H](Cc4c[nH]c5ccccc45)NC(=O)[C@H](CC(=O)O)NC(=O)CNC(=O)[C@H](CCCNC(=N)N)NC(=O)CNC(=O)[C@H](CCC(N)=O)NC(=O)[C@@H]4CCCN4C(=O)[C@@H](NC(=O)CNC(=O)c4ccc(F)cc4)CSSC[C@H](NC(=O)CNC(=O)[C@H](C)NC1=O)C(=O)N[C@@H](C(C)C)C(=O)N3)C(=O)N[C@@H](CO)C(=O)N[C@@H](CCC(N)=O)C(=O)N[C@@H](CC(=O)O)C(=O)N[C@@H](CO)C(=O)N[C@@H](CC(=O)O)C(=O)N2` [fluorine-18 labelled] — result for “maximum tumour uptake”: 3.5 %ID/g (dynamic microPET; nude mouse, U-87 MG xenograft, tumour; intravenous, 3.7 MBq, 5 min).
The tissue uptake of `CC(=O)N[C@H](CCCCNC(=O)C(C)F)C(=O)N[C@@H](CS)C(=O)N[C@@H](CS)C(=O)N[C@@H](CCC(=O)O)C(=O)N[C@@H](Cc1c[nH]cn1)C(=O)N[C@H](Cc1ccccc1)C(=O)N[C@@H](CCCNC(=N)N)C(=O)N[C@@H](Cc1c[nH]c2ccccc12)C(=O)N[C@@H](CS)C(=O)N[C@@H](CCCNC(=N)N)C(=O)N1CCC[C@H]1C(=O)N[C@H](C(N)=O)C(C)C` (some centres unmarked) [fluorine-18 labelled] is reported as 0.15 ± 0.04 %ID/g (C57BL/6 mice, male, B16-F10 tumour, blood; intravenous, 4 h).
For `O=c1[nH]c(=O)[nH]c(=O)[nH]1`, “Pearson correlation coefficient” read 0.83 (LC-MS/MS; CD IGS rat, pregnant female, amniotic fluid vs serum; oral, 1000 mg/kg/day, 10 days).
`O=c1[nH]c(Cc2ccccn2)nc2c1cnn2C1CCOCC1` gave an AUC(0-inf) of 0.0756 µM·h (healthy men, extensive metabolizers, plasma; oral, 5 mg single dose, tablet, geometric mean).
The Tmax of `CCCC(=O)OCSc1ccccc1C(=O)NCCC(N)=O` is reported as 0.0458 ± 0.0708 days (Sprague-Dawley rat, male, plasma; oral, 1000 mg/kg).
With `lead` the logP was 0.71 ± 0.02 (1-octanol/water).
With `C#CCN(C)CCCCCCOCc1ccc(CN(C)c2c3c(nc4ccccc24)CCCC3)cc1` the bioavailability was at most 90% (male Sprague-Dawley rat, plasma; intraperitoneal, 10 mg/kg).
`COc1cccc(C=CC(=O)C=Cc2cccc(OC)c2OC)c1OC` has an LC50 of 100 µM (fish embryo acute toxicity test; zebrafish (Danio rerio) embryos wild-type; immersion, up to 96 h, 0.1% DMSO).
`CC1N=C(c2ccccc2F)c2cc(Nc3ccccc3F)ccc2NC1=O` (centres unmarked) has an aqueous solubility of 27 µM (≈ 10.2 µg/mL) (shake flask; PBS; 24 h, pH 7.4).
The MRT of `Cc1cc(C(C#N)c2ccc(Cl)cc2)c(Cl)cc1NC(=O)c1cc(I)cc(I)c1O` (centres unmarked) is reported as 26.9 ± 4.94 days (HPLC, non-compartmental; Corriedale lambs, parasitized, plasma; oral, 10 mg/kg, with: moxidectin 0.2 mg/kg oral).
`CCN(CC)CCCC(C)Nc1ccnc2cc(Cl)ccc12` (centres unmarked) has a creatinine of 21.7 ± 3.97 µmol/L (male athymic BALB/c nude mice, xenograft, serum; intraperitoneal, 60 mg/kg every other day, 2 weeks, with: sulforaphane 5 mg/kg).
`CC[C@@]1(O)C(=O)OCc2c1cc1n(c2=O)Cc2cc3c(CN(C)C)c(O)ccc3nc2-1` has a half-life ratio of 0.83 (human patients, plasma; oral, 2.5 mg daily for 5 days, MTD arm, daily dosing, with: pazopanib; relative to: with pazopanib over alone).
With `O[C@H]1CCCN[C@@H]1CCCn1cnc2c(Cl)c(Cl)ccc21` the AUC was 2280 ng·h/mL (human, plasma; oral, 500 mg, single dose, healthy volunteers).
The Cmax of `CCCCCOc1ccc(-c2cc(-c3ccc(C(=O)N[C@H]4C[C@@H](O)[C@@H](O)NC(=O)[C@@H]5[C@@H](O)[C@@H](C)CN5C(=O)[C@H]([C@H](O)CC(N)=O)NC(=O)[C@H]([C@H](O)[C@@H](O)c5ccc(O)c(OS(=O)(=O)O)c5)NC(=O)[C@@H]5C[C@@H](O)CN5C(=O)[C@H]([C@@H](C)O)NC4=O)cc3)no2)cc1` is reported as 28100 ng/mL (young infants under 1000 g, plasma; intravenous infusion, 10 mg/kg/day, day 4, mean, 1 h infusion, repeat dosing).
For `CC[C@H](C)[C@@H]1NC(=O)[C@H]([C@@H](C)O)NC(=O)[C@@H](NC(=O)[C@H](Cc2ccccc2)NC(=O)[C@H](C)NC(=O)[C@H](CCCCN)NC(=O)[C@H](CCCCN)NC(=O)[C@H](CC(C)C)NC(=O)[C@@H](NC(=O)[C@H](CCCCN)NC(=O)[C@H](C)NC(=O)[C@H](C)NC(=O)[C@@H](NC(=O)CNC(=O)[C@H](C)NC(=O)[C@@H](NC(=O)[C@H](CCCCN)NC(=O)[C@@H]2CCCN2C(=O)[C@H](Cc2ccccc2)NC(=O)[C@@H](N)Cc2ccccc2)C(C)C)C(C)C)C(C)C)CSSC[C@@H](C(=O)O)NC(=O)[C@H](CCCCN)NC(=O)[C@H](CCCCN)NC(=O)[C@H](CO)NC1=O`, the HC50 was 84.9 µM (haemolysis; horse erythrocytes; 2 h, 37 °C).
`COc1ccc(C[C@@H]2NC(=O)[C@H]([C@@H](C)O)NC(=O)[C@@H]3[C@@H]4CCN3C(=O)[C@@H]3Cc5cn(c6ccc(F)cc56)CCCCCCN(Cc5ccc(cc5)CCNC(=O)[C@]5(C)CCCN5C2=O)C(=O)CCC(=O)N[C@@H](C)C(=O)N[C@H](CNC(=O)CCCCC[N+](C)(C)C)C(=O)N[C@@H](Cc2cccc(c2)CNC(=O)CO4)C(=O)N3)cc1` has a Vz/F of 2660 L (fasted healthy humans, plasma; oral, 35 mg single dose, with 1800 mg Labrasol, geometric mean).
`CSCC[C@@H]1NC(=O)[C@H](CC(=O)O)NC(=O)CNC(=O)[C@H](CCCNC(=N)N)NC(=O)[C@H](C)NC(=O)[C@H](CCC(=O)O)NC(=O)[C@H](CCCNC(=N)N)NC(=O)[C@@H]2CSSC[C@@H]3NC(=O)[C@H](CO)NC(=O)[C@H]([C@@H](C)O)NC(=O)[C@@H]4CCCN4C(=O)[C@H](C)NC(=O)[C@H](Cc4c[nH]c5ccccc45)NC(=O)[C@H](CC(=O)O)NC(=O)CNC(=O)[C@H](CCCNC(=N)N)NC(=O)CNC(=O)[C@H](CCC(N)=O)NC(=O)[C@@H]4CCCN4C(=O)[C@@H](NC(=O)CNC(=O)C(C)F)CSSC[C@H](NC(=O)CNC(=O)[C@H](C)NC(=O)[C@H](CC(C)C)NC(=O)[C@H](CSSC[C@@H](C(=O)NCC(N)=O)NC(=O)[C@H]([C@@H](C)O)NC(=O)[C@H](CCCNC(=N)N)NC(=O)[C@@H]4CCCN4C1=O)NC(=O)[C@H](CC(=O)O)NC(=O)[C@H](CO)NC(=O)[C@H](CC(=O)O)NC(=O)[C@H](CCC(N)=O)NC(=O)[C@H](CO)NC3=O)C(=O)N[C@@H](C(C)C)C(=O)N2` (some centres unmarked) [fluorine-18 labelled] has a tissue uptake of 0.15 ± 0.06 %ID/g (nude mice U-87 MG xenograft, brain; intravenous, 2.5 h).
`CN[C@H](CC(C)C)C(=O)N[C@H]1C(=O)N[C@@H](CC(N)=O)C(=O)N[C@H]2C(=O)N[C@H]3C(=O)N[C@H](C(=O)N[C@H](C(=O)O)c4cc(O)cc(O)c4-c4cc3ccc4O)[C@H](O)c3ccc(c(Cl)c3)Oc3cc2cc(c3O[C@@H]2O[C@H](CO)[C@@H](O)[C@H](O)[C@H]2O[C@H]2C[C@](C)(N)[C@H](O)[C@H](C)O2)Oc2ccc(cc2Cl)[C@H]1O` has a GFR difference of 0.04 mL/min/100 g (iohexol clearance; male Sprague-Dawley rats; dose not given, day 1, bolus vs humanized infusion; relative to: humanized infusion).
The tissue concentration of `Oc1ccc2ccc3cccc4ccc1c2c34` is reported as 88 ± 36 ng/g (HPLC-fluorescence; Wistar rat, male, testes; oral, 4 mg/kg PY, 24 h).
Under “incidence of ALT increase”, `COc1ccc(-c2ccc3c(N4CCOC[C@@H]4C)nc(N4CCOC[C@@H]4C)nc3n2)cc1CO` is recorded as 22% (human patients; oral, dose not given, related adverse events).
With `[123I]c1cncc(OC[C@@H]2CCN2)c1` the tissue/plasma ratio was 11.4 (SPECT; human, occipital lobe; intravenous bolus plus infusion, 7.8 mCi; relative to: tissue over plasma).

Repeated from above:
`CSCC[C@@H]1NC(=O)[C@H](CC(=O)O)NC(=O)CNC(=O)[C@H](CCCNC(=N)N)NC(=O)[C@H](C)NC(=O)[C@H](CCC(=O)O)NC(=O)[C@H](CCCNC(=N)N)NC(=O)[C@@H]2CSSC[C@@H]3NC(=O)[C@H](CO)NC(=O)[C@H]([C@@H](C)O)NC(=O)[C@@H]4CCCN4C(=O)[C@H](C)NC(=O)[C@H](Cc4c[nH]c5ccccc45)NC(=O)[C@H](CC(=O)O)NC(=O)CNC(=O)[C@H](CCCNC(=N)N)NC(=O)CNC(=O)[C@H](CCC(N)=O)NC(=O)[C@@H]4CCCN4C(=O)[C@@H](NC(=O)CNC(=O)C(C)F)CSSC[C@H](NC(=O)CNC(=O)[C@H](C)NC(=O)[C@H](CC(C)C)NC(=O)[C@H](CSSC[C@@H](C(=O)NCC(N)=O)NC(=O)[C@H]([C@@H](C)O)NC(=O)[C@H](CCCNC(=N)N)NC(=O)[C@@H]4CCCN4C1=O)NC(=O)[C@H](CC(=O)O)NC(=O)[C@H](CO)NC(=O)[C@H](CC(=O)O)NC(=O)[C@H](CCC(N)=O)NC(=O)[C@H](CO)NC3=O)C(=O)N[C@@H](C(C)C)C(=O)N2` (some centres unmarked) [fluorine-18 labelled] has a tissue uptake of 0.15 ± 0.06 %ID/g (nude mice U-87 MG xenograft, brain; intravenous, 2.5 h).
`CN[C@H](CC(C)C)C(=O)N[C@H]1C(=O)N[C@@H](CC(N)=O)C(=O)N[C@H]2C(=O)N[C@H]3C(=O)N[C@H](C(=O)N[C@H](C(=O)O)c4cc(O)cc(O)c4-c4cc3ccc4O)[C@H](O)c3ccc(c(Cl)c3)Oc3cc2cc(c3O[C@@H]2O[C@H](CO)[C@@H](O)[C@H](O)[C@H]2O[C@H]2C[C@](C)(N)[C@H](O)[C@H](C)O2)Oc2ccc(cc2Cl)[C@H]1O` has a GFR difference of 0.04 mL/min/100 g (iohexol clearance; male Sprague-Dawley rats; dose not given, day 1, bolus vs humanized infusion; relative to: humanized infusion).
